Results gathered from unrelated publications.
Every numbered part comes from another study and shows a few of its results, in no order. Substitutions count along the parent as printed.
Sequence of UniProt P37023 (whole entry, looked up): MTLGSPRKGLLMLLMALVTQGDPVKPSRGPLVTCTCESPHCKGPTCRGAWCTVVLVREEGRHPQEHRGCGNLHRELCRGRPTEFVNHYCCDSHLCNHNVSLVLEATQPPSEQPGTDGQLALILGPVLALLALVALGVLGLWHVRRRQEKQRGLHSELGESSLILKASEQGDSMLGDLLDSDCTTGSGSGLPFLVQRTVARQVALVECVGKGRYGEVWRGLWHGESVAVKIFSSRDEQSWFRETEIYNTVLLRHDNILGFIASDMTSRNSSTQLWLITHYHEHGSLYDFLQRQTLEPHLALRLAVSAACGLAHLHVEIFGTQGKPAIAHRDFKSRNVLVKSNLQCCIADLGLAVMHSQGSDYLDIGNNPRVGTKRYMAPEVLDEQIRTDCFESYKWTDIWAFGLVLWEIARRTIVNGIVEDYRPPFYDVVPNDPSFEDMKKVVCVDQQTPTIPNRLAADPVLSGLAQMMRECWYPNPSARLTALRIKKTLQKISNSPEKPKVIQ
Sequence of UniProt Q05940 (whole entry, looked up): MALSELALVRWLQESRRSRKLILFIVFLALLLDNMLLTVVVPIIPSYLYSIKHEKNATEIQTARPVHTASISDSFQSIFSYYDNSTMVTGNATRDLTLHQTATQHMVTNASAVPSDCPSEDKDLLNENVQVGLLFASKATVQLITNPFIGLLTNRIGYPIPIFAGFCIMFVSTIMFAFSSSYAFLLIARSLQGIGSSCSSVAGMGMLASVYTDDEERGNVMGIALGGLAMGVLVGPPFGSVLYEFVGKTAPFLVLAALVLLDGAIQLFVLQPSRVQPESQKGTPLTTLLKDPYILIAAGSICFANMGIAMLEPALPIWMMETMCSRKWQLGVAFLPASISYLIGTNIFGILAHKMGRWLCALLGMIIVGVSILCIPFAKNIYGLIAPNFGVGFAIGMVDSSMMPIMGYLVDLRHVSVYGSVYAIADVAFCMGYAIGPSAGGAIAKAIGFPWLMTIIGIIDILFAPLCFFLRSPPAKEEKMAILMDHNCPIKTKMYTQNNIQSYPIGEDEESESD

Block 1
Target: CCNF, cyclin fold, Cln2 fusion (human)
Method: yeast growth competition, sequencing
Sample: yeast
Setting: strong parent motif
Relative to: not given
Direction: higher = stronger binding
Starting sequence: viral docking peptide; PGASRRLFGSSAD; partner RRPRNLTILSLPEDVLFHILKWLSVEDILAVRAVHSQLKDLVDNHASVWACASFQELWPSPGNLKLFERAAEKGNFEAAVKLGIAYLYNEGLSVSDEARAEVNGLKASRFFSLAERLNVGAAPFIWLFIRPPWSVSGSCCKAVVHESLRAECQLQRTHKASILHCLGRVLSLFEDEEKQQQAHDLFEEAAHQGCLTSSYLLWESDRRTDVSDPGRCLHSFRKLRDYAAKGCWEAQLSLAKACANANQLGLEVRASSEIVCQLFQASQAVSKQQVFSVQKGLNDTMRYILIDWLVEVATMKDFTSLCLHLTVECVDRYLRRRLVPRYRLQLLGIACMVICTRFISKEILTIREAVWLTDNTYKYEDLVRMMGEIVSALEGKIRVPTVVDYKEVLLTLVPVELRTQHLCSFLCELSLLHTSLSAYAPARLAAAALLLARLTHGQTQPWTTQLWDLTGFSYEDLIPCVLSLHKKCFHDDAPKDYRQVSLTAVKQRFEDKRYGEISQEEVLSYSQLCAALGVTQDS
Under “normalised enrichment score”, `G9A` is recorded as 4.68.
Under “normalised enrichment score”, `R5K` is recorded as 0.883.
Under “normalised enrichment score”, `G2A` is recorded as 3.15.
`P1A` — result for “normalised enrichment score”: 3.28.
For `F8L`, “normalised enrichment score” read 0.608.
For `D13A`, “normalised enrichment score” read 3.38.
`R5A`: “normalised enrichment score” 0.844.
Under “normalised enrichment score”, `S4A` is recorded as 5.24.

Block 2
Target: UDP-N-acetylglucosamine--peptide N-acetylglucosaminyltransferase 110 kDa subunit (OGT, Homo sapiens, UniProt O15294)
Sequence of UniProt O15294 (whole entry, looked up): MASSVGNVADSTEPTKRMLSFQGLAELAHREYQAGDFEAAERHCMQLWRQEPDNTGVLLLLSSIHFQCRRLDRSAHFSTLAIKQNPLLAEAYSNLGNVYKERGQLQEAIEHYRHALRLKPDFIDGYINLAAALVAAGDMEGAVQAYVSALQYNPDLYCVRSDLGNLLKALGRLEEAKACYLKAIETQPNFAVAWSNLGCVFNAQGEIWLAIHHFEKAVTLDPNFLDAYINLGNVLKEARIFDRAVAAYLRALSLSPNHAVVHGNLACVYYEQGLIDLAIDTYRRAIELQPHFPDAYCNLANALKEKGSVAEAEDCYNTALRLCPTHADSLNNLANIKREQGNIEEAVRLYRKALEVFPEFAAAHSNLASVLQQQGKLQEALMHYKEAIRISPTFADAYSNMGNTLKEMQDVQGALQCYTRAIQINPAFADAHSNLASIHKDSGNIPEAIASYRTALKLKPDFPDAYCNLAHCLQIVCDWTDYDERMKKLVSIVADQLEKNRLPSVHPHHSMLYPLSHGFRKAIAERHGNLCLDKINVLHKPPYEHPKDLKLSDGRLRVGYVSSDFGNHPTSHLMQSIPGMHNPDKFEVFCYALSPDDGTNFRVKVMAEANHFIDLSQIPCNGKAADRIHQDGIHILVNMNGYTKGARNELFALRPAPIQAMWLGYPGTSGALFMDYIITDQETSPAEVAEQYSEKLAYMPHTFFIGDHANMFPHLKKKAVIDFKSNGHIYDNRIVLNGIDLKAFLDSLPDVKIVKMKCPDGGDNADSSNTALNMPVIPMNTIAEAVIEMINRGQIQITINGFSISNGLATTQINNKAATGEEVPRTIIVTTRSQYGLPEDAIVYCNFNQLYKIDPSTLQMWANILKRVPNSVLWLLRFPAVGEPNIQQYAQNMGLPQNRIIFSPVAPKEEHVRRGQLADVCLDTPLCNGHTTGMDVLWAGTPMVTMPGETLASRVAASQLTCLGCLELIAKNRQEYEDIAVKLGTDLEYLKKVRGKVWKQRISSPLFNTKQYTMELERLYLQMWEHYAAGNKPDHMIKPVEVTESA
Observed: binding
Method: phage display NGS
Molecule type: peptide
Setting: panning round 2
Relative to: input library
`QKPMLFLPQYIIVAN` — result for “minimum log2 enrichment ratio”: 6.44.
For `HMPWTHHYAKPYHVG`, “minimum log2 enrichment ratio” read 3.63.
Under “minimum log2 enrichment ratio”, `TQFHNHHARDWSKQT` is recorded as 2.57.
`IPAPHQQGTHHGFIH` — result for “minimum log2 enrichment ratio”: 2.63.
For `HPFHHNYVHYLSREQ`, “minimum log2 enrichment ratio” read 2.45.
`STYTPFYPIKFWANR`: “minimum log2 enrichment ratio” 2.66.
`HWGGVHIDHHTVNV`: “minimum log2 enrichment ratio” 2.84.
Under “minimum log2 enrichment ratio”, `HQHPHGQYKEQIGHY` is recorded as 2.84.

Block 3
Organism: Plasmodium berghei
Cells: Huh-7
Strain: liver stage
Tested at: 10 µM
Time: 24 h
Relative to: control
For `Cc1cc(C(C)(C)C)cc(C)c1CC1=NCCN1`, the parasite load was 113%.
`C[C@]12CC[C@H]3C(=CCc4cc(O)ccc43)[C@@H]1CCC2=O` has a parasite load of 105%.
`CN1CCc2cc3c(cc2C1O)OCO3` (stereo not shown) has a parasite load of 79%.

Single results of other studies
`CN(C)C(=O)C(CCN1CCC(O)(c2ccc(Cl)cc2)CC1)(c1ccccc1)c1ccccc1` has an IC50 of 158 nM (SLC18A2 (Homo sapiens, UniProt Q05940); transporter inhibition, inhibitor).
For `CC(C)n1cnc(-c2ccc(F)cc2)c1-c1ncc(C(=O)Nc2ccc(N3CCN(C)CC3)cc2)[nH]1`, “patients with influenza-like illness” read 0% (human, idiopathic pulmonary fibrosis; 30 mg once daily, trial, treatment-emergent).
`CC(C)(C)c1cc(C=C(C#N)C#N)cc(Br)c1O` has a remaining activity of 105% (ACVRL1 (Homo sapiens, UniProt P37023); enzyme activity, inhibitor; 0.5 µM).

For quick reference, copied from above (block 2):
`QKPMLFLPQYIIVAN` — result for “minimum log2 enrichment ratio”: 6.44.
Under “minimum log2 enrichment ratio”, `TQFHNHHARDWSKQT` is recorded as 2.57.
